Results gathered from unrelated publications.
Numbered parts are unrelated; each lists some results of a single study. Several values in a cell are separate wells, animals, samples, runs or records. Numbers after ± are the reported error.
Chain of UniProt P11247 (whole entry, looked up): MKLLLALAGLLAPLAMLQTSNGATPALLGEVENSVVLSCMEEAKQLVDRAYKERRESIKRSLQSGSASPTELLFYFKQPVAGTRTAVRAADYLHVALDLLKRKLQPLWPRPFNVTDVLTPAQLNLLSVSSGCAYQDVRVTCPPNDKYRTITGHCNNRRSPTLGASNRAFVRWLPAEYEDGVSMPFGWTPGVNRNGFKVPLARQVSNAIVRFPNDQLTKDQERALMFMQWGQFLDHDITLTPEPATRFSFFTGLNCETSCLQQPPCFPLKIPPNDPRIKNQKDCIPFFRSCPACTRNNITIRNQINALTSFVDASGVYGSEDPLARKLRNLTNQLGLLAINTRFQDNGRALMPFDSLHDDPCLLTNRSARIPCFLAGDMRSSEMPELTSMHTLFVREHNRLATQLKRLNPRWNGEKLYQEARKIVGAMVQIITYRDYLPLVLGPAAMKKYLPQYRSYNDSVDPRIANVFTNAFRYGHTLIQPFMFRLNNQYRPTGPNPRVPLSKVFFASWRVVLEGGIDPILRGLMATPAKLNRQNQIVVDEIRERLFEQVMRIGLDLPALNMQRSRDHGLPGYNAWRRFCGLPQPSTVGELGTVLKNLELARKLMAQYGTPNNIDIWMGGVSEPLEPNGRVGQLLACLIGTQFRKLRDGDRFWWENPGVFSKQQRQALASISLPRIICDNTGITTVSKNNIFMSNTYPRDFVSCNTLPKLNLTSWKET

Study 1
Compound: Cc1ccc(O)c(C)c1-c1cnc2[nH]c(-c3cnc(N4CCC(CN5CCN(c6ccc7c(c6)CN(C6CCC(=O)NC6=O)C7=O)CC5)CC4)nc3)cc2c1C#N (stereo not shown)
Target: Membrane-associated tyrosine- and threonine-specific cdc2-inhibitory kinase (PKMYT1, Homo sapiens, UniProt Q99640)
Chain of UniProt Q99640 (whole entry, looked up): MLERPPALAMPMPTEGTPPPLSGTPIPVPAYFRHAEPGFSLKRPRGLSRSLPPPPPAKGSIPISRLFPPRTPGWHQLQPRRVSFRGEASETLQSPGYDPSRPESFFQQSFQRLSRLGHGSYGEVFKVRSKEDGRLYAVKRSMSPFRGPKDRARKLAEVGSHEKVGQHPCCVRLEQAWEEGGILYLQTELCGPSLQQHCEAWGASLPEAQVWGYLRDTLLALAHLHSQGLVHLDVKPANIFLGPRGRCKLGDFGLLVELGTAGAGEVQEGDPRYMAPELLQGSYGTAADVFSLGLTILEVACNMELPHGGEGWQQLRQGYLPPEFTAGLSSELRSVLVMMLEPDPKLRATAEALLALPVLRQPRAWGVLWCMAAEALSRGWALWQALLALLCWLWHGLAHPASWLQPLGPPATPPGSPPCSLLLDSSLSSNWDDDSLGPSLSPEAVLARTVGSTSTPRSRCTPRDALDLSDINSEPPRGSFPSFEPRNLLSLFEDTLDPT
observed	mode	technique	concentration	inhibition [%]
cell-free assay	inhibitor	TR-FRET	0.3333 µM	104
–	–	–	0.3333 µM	100
cell-free assay	inhibitor	TR-FRET	51 pM	1.24
–	–	–	0.00412 µM	61.3
cell-free assay	inhibitor	TR-FRET	460 pM	8.51
–	–	–	1 µM	100
–	–	–	5.1e-05 µM	-2.65
cell-free assay	inhibitor	TR-FRET	1.37 nM	25.3
cell-free assay	inhibitor	TR-FRET	12.35 nM	92.1
cell-free assay	inhibitor	TR-FRET	4.12 nM	63

Study 2
Compound: C[C@@H]1CN(c2ccc(-c3cc(C(=O)NCCOCCOCCOCCOCCNC(=O)/C=C/c4[nH]cc(C(=O)N[C@@H](CC(N)=O)c5ccc(F)c(Cl)c5)c4-c4ccc(Cl)cc4F)ccc3F)cc2NC(=O)c2c[nH]c(=O)cc2C(F)(F)F)C[C@H](C)N1C
Observed: thermal unfolding
Technique: differential scanning fluorimetry
Concentration: 5.5 µM
Reading: higher = more unfolded
DCAF1: DDB1- and CUL4-associated factor 1 (DCAF1, Homo sapiens, UniProt Q9Y4B6)
Chain of UniProt Q9Y4B6 (whole entry, looked up): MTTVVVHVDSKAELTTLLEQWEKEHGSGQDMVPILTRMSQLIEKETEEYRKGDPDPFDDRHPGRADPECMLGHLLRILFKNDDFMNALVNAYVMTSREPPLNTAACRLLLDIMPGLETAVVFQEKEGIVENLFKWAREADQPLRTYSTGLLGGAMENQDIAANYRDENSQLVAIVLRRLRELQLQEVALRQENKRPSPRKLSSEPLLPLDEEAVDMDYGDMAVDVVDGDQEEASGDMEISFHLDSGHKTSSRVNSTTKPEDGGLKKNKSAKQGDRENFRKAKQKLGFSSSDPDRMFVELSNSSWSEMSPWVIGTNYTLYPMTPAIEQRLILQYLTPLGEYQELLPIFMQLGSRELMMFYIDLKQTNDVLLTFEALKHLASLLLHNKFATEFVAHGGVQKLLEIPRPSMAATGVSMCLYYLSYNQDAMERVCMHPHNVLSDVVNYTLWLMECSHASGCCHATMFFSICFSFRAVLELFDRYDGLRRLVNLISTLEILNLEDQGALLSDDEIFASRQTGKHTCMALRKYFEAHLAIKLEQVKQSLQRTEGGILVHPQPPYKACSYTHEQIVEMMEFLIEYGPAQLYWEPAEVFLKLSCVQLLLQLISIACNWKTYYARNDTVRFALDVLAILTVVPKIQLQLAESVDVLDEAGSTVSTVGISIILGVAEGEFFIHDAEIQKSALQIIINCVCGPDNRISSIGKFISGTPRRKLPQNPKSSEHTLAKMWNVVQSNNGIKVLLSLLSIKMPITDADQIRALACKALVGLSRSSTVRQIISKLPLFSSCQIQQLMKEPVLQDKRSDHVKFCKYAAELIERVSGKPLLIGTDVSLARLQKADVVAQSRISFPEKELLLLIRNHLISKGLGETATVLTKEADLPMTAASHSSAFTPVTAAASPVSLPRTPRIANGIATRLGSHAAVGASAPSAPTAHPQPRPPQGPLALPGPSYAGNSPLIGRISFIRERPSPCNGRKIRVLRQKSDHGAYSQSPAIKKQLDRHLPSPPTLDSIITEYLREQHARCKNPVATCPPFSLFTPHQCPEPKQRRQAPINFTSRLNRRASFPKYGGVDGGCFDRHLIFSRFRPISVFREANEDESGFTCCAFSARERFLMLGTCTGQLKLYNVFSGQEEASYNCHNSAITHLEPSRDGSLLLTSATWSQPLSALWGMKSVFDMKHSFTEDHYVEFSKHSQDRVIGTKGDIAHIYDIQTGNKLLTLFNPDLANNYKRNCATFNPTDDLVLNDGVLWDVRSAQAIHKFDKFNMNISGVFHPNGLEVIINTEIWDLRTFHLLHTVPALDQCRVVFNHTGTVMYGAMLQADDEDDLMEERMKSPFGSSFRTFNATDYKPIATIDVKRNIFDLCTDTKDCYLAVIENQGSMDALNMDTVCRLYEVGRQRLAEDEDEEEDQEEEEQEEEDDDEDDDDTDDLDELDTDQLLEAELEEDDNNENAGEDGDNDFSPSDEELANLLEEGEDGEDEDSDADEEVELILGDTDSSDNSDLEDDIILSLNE
WDR5: WD repeat-containing protein 5 (WDR5, Homo sapiens, UniProt P61964)
target	temperature	SYPRO Orange fluorescence [a.u.]
DCAF1	94.41 °C	30300
WDR5	94.81 °C	45400
WDR5	34 °C	13200
DCAF1	27 °C	8860
DCAF1	42.4 °C	12300
WDR5	88.41 °C	52800
DCAF1	73.81 °C	51400
DCAF1	73.41 °C	51800
WDR5	45.6 °C	15400
DCAF1	75.01 °C	50000
DCAF1	63.61 °C	55800

Study 3
SMILES: COc1cc(-c2nc3ccc(C(=O)NCCCN(C)C)cc3n2C2CCC2)cc(OC)c1OC
Technique: NanoBRET
Concentration: 1 µM
target	target occupancy [%]
Mitogen-activated protein kinase kinase kinase 3 (MAP3K3, Homo sapiens, UniProt Q99759)	1.2
Cyclin-dependent kinase 4, with cyclin D3 (CDK4, Homo sapiens, UniProt P11802)	3.78
Tyrosine-protein kinase Fer (FER, Homo sapiens, UniProt P16591)	1.12
Insulin receptor (INSR, Homo sapiens, UniProt P06213)	-2.56
Serine/threonine-protein kinase PAK 6 (PAK6, Homo sapiens, UniProt Q9NQU5)	3.27
Casein kinase II subunit alpha' (CSNK2A2, Homo sapiens, UniProt P19784)	-4.2
5'-AMP-activated protein kinase catalytic subunit alpha-1 (PRKAA1, Homo sapiens, UniProt Q13131)	-2.57
Protein-tyrosine kinase 6 (PTK6, Homo sapiens, UniProt Q13882)	0.97
Serine/threonine-protein kinase ULK2 (ULK2, Homo sapiens, UniProt Q8IYT8)	2.22
Serine/threonine-protein kinase RIO2 (RIOK2, Homo sapiens, UniProt Q9BVS4)	-3.74
Microtubule-associated serine/threonine-protein kinase 4 (MAST4, Homo sapiens, UniProt O15021)	-1.21

Study 4
SMILES: CCN1/C(=C/C=C2\CCCC(/C=C/C3=[N+](CC)c4ccccc4C3(C)C)=C2NCCCCCCCCN2CCC(Nc3nc4ccccc4n3Cc3ccc(F)cc3)CC2)C(C)(C)c2ccccc21
Cell line: U-87 MG
Concentration: concentration not given
Reference: DMSO
item	log2 fold change
COMMD4 mRNA	-0.84
KIF4A mRNA	-1.79
CA13 mRNA	1.32
KIFC1 mRNA	-2.51
PRSS23 mRNA	-1.59
SAPCD1 mRNA	-1.58
CENPW mRNA	-1.98
ACAT2 mRNA	-1.01
FEM1C mRNA	0.949
TFPI2 mRNA	1.09
IGFBP3 mRNA	2.3
SAT1 mRNA	2
ZUP1 mRNA	0.929
XCR1 mRNA	-2.74
DNAJB2 mRNA	1.31
CPNE4 mRNA	1.67

Study 5
Target: Cyclin-dependent kinase 12, with cyclin K (CDK12, Homo sapiens, UniProt Q9NYV4)
Chain of UniProt Q9NYV4 (whole entry, looked up): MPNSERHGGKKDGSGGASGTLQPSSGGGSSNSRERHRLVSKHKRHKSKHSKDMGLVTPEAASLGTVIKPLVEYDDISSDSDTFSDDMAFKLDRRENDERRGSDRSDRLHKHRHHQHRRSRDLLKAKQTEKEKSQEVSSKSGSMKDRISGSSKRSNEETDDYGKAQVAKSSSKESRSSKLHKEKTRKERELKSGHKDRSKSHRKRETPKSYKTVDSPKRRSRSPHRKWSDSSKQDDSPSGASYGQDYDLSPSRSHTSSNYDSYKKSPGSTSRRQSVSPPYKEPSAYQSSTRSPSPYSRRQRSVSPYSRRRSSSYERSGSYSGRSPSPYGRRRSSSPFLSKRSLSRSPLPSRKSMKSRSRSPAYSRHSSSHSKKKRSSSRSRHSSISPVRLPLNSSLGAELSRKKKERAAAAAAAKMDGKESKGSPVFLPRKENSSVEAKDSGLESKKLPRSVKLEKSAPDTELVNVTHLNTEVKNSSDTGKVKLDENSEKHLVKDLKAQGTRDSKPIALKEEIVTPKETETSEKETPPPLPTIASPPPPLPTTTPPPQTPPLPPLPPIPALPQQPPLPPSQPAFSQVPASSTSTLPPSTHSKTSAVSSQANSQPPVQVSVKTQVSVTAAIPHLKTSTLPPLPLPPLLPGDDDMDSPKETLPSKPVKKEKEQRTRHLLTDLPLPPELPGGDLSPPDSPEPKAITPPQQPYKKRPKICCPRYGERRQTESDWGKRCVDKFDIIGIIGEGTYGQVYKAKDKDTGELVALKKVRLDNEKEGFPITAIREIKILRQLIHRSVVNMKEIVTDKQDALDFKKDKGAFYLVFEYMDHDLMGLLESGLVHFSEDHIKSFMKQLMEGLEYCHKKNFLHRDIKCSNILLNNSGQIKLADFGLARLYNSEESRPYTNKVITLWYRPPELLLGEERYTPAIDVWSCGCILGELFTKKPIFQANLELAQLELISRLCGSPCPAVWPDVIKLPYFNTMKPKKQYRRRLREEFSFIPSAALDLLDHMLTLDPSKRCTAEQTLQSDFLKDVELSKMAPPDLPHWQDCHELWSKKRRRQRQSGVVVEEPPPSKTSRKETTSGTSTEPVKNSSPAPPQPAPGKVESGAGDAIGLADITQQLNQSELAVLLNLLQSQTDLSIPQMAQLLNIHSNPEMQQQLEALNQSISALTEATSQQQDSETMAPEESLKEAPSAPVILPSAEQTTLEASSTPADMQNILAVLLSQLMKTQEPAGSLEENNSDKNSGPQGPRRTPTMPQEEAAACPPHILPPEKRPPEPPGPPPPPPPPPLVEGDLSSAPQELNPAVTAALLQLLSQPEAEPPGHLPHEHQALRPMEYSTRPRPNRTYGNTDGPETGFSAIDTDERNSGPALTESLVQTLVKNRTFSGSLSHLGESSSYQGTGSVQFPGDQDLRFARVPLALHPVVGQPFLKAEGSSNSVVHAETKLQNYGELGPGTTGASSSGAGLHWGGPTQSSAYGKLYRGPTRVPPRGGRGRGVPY
Observed: kinase activity
Mode: inhibitor
Technique: ADP-Glo
Concentration: 0.0009 µM
SMILES	inhibition [%]
CCn1cnc2c(NCc3nc4cc(Cl)c(Cl)cc4[nH]3)nc(N3CCN(C(=O)[C@H](C)NC(C)=O)CC3)nc21	-20.8
CCn1cnc2c(NCc3nc4cc(Cl)c(Cl)cc4[nH]3)nc(N3CCN(C(C)=O)CC3)nc21	6
CC(=O)N1CCN(c2nc(NCc3nc4cc(Cl)c(Cl)cc4[nH]3)c3ncn(C(C)C)c3n2)CC1	2.3
CCn1cnc2c(NCc3nc4cc(Cl)c(Cl)cc4[nH]3)nc(N3CCN(C(=O)c4ccccn4)CC3)nc21	-5.5
CCn1cnc2c(NCc3nc4cc(Cl)c(Cl)cc4[nH]3)nc(N3CCN(Cc4ccncc4)CC3)nc21	-11.2
CCn1cnc2c(NCc3nc4cc(Cl)c(Cl)cc4[nH]3)nc(N3CCN(c4ccccn4)CC3)nc21	3.1
CCn1cnc2c(NCc3nc4cc(Cl)c(Cl)cc4[nH]3)nc(N3CCN(C(=O)c4cccnc4)CC3)nc21	-10.8
CCn1cnc2c(NCc3nc4cc(Cl)c(Cl)cc4[nH]3)nc(N3CCN(C(=O)c4ccncc4)CC3)nc21	4
CC(=O)N1CCN(c2nc(NCc3nc4cc(Cl)c(Cl)cc4[nH]3)c3ncn(C)c3n2)CC1	-5.3

Study 6
SMILES: CC[C@@]1(c2ccccc2)C2=C(CC(C)(C)CC2=O)Nc2n[nH]cc21
Concentration: 1 µM
target	observed	technique	reference	remaining binding [%]
Casein kinase I isoform gamma-1 (CSNK1G1, Homo sapiens, UniProt Q9HCP0)	binding	competition with immobilised ligand	–	96
Cyclin-dependent kinase 4 (CDK4, Homo sapiens, UniProt P11802)	binding	competition with immobilised ligand	–	92
1-phosphatidylinositol 3-phosphate 5-kinase (PIKFYVE, Homo sapiens, UniProt Q9Y2I7)	kinase binding	KINOMEscan	DMSO control	100
Serine/threonine-protein kinase VRK2 (VRK2, Homo sapiens, UniProt Q86Y07)	kinase binding	KINOMEscan	DMSO control	100
Serine/threonine-protein kinase WNK2 (WNK2, Homo sapiens, UniProt Q9Y3S1)	binding	competition with immobilised ligand	–	100
Dual specificity mitogen-activated protein kinase kinase 5 (MAP2K5, Homo sapiens, UniProt Q13163)	kinase binding	KINOMEscan	DMSO control	77
Serine/threonine-protein kinase PAK 3 (PAK3, Homo sapiens, UniProt O75914)	binding	competition with immobilised ligand	–	100
Serine/threonine-protein kinase OSR1 (OXSR1, Homo sapiens, UniProt O95747)	kinase binding	KINOMEscan	DMSO control	100
Serine/threonine-protein kinase Chk1 (CHEK1, Homo sapiens, UniProt O14757)	binding	competition with immobilised ligand	–	91
Dual specificity mitogen-activated protein kinase kinase 4 (MAP2K4, Homo sapiens, UniProt P45985)	binding	competition with immobilised ligand	–	100
Serine/threonine-protein kinase pim-2 (PIM2, Homo sapiens, UniProt Q9P1W9)	binding	competition with immobilised ligand	–	100
Myosin light chain kinase (MYLK3, Homo sapiens, UniProt Q32MK0)	binding	competition with immobilised ligand	–	89
Citron Rho-interacting kinase (CIT, Homo sapiens, UniProt O14578)	kinase binding	KINOMEscan	DMSO control	100

Further values, each from its own experiment
MPO: Myeloperoxidase (MPO, Homo sapiens, UniProt P05164)
Chain of UniProt P05164 (whole entry, looked up): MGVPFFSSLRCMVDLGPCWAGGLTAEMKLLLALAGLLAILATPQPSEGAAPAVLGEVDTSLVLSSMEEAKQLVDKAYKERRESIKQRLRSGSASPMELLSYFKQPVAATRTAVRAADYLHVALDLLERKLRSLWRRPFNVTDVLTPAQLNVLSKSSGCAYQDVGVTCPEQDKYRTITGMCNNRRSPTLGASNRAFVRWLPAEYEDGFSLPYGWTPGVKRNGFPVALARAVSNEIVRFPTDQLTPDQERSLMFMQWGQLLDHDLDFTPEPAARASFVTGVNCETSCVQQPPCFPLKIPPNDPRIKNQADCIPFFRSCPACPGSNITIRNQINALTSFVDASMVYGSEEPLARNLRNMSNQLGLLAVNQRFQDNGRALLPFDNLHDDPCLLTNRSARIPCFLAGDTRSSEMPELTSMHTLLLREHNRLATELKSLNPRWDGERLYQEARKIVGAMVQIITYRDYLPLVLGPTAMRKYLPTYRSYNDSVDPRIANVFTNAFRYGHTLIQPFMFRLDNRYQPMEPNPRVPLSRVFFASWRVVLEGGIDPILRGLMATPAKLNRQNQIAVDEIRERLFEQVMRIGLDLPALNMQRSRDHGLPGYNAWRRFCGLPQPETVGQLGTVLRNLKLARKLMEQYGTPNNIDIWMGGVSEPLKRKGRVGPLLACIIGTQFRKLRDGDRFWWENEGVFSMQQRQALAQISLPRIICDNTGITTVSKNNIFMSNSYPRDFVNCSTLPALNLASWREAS
SMILES	target or system	assay	system	setting	scale	measurement	value
CCONC(=O)/C=C/CNCCCCN1c2cc(Cl)ccc2CCc2cnn(C)c21.O=C(O)/C=C\C(=O)O	–	–	human plasma	5 µM	–	half-life	33.1 ± 7.6 min
CCOc1ccc2nc(Sc3nc(Nc4ccc(I)cc4)nc(N4CCOCC4)n3)sc2c1	Gaucher fibroblasts	qPCR, item: GBA1 mRNA	–	10 µM, unit not given	reference: vehicle	mRNA level	1.6 and 1.05 and 1.65
COc1cc(C(=O)OCCCN2CCCN(CCCOC(=O)c3cc(OC)c(OC)c(OCc4ccc([N+](=O)[O-])cc4)c3)CC2)cc(OC)c1OC	Equilibrative nucleoside transporter 1 (SLC29A1, Homo sapiens, UniProt Q99808, G154S)	inhibitor	Xenopus oocytes expressing SLC29A1 G154S	unit not given, added: [3H]adenosine	reference: untreated	adenosine uptake	0.553 and 0.644
CCOC(=O)/C=C/CNCCCCN1c2cc(Cl)ccc2CCc2cnn(C)c21.O=C(O)/C=C\C(=O)O	–	–	human plasma	5 µM	–	half-life	150 ± 23.2 min
NC/C(=C\F)COc1cccc(Cn2c(=S)[nH]c(=O)c3[nH]cnc32)c1	Myeloperoxidase (Mus musculus, UniProt P11247)	ELISA, item: myeloperoxidase	mice, zymosan or thioglycolate peritonitis, peritoneal lavage	60 mg/kg	–	protein level	2540 ng/mL and 1920 ng/mL and 2610 ng/mL
Cc1ncsc1-c1ccc(C(CO)NC(=O)C2CC(O)CN2C(=O)C(NC(=O)c2ccc(COc3c(-c4c(C)c(F)cc5[nH]ncc45)c(C4CC4)cc4c(N5CC6CC5CN6)nc(OC5CCOCC5)nc34)cc2)C(C)C)cc1 (stereo not shown)	von Hippel-Lindau disease tumor suppressor, with Elongin B/C (VHL, Homo sapiens, UniProt P40337)	SPR, single-cycle	immobilized VCB complex	binary	–	Kd	135 nM and 97.9 nM and 108 nM
C=C(CN)COc1cccc(Cn2c(=S)[nH]c(=O)c3[nH]cnc32)c1	MPO	enzyme activity, inhibitor, fluorescence	–	3.333 µM	–	inhibition	100%
Cc1nc(C)c(C=[N+]([O-])C(C)(C)C)nc1C	rat cerebellar granule neurons	TUNEL	–	300 µM, 2 h pretreatment, added: MPP+ 150 µM for 24 h	–	apoptotic cells	34.5% and 28.1%
NC/C(=C\F)COc1ccc(C(F)(F)F)c(Cn2c(=S)[nH]c(=O)c3[nH]cnc32)c1	MPO	enzyme activity	–	0.0137 µM	–	inhibition	19% and 26.9%
Cc1ncsc1-c1ccc(C2(NC(=O)C3CC(O)CN3C(=O)C(NC(=O)c3ccc(COc4c(-c5c(C)c(F)cc6[nH]ncc56)c(C5CC5)cc5c(N6CC7CC6CN7)nc(OC6CCOCC6)nc45)cc3)C(C)(C)C)CC2)cc1 (stereo not shown)	GTPase KRas (KRAS, Homo sapiens, UniProt P01116, G12D)	degrader, In-Cell ELISA	AsPC-1 (KRAS G12D)	24 h, geometric mean	–	DC50	682 nM
NC/C(=C\F)COc1ccc(-c2cc(=O)[nH]c(=S)n2CC(N)=O)c(Cl)c1	Amine oxidase [copper-containing] 3 (AOC3, Homo sapiens, UniProt Q16853)	enzyme activity, Amplex Red H2O2 production	–	3.333 µM	–	inhibition	98.7%
CCN1CCN(Cc2ccc(COc3c(-c4c(C)c(F)cc5[nH]ncc45)c(C4CC4)cc4c(N5C[C@@H]6C[C@H]5CN6)nc(OC5CCOCC5)nc34)cc2)C(=O)C1	AsPC-1 (KRAS G12D)	CellTiter-Glo	–	300 pM	–	viability	78.2% and 80.3% and 79.5% and 91.4%

Some of these lines once more (study 2):
target	temperature	SYPRO Orange fluorescence [a.u.]
DCAF1	27 °C	8860
DCAF1	42.4 °C	12300
WDR5	88.41 °C	52800
DCAF1	73.81 °C	51400
DCAF1	73.41 °C	51800
WDR5	45.6 °C	15400
DCAF1	75.01 °C	50000
DCAF1	63.61 °C	55800
